{"data": "Results pooled from the literature", "note": "A part holds a random share of what one study measured."}
{"data": "Series 1", "target": "Ras GTPase-activating protein-binding protein 1, C-terminal RGG region (G3BP1, Homo sapiens, UniProt Q13283)", "technique": "RNA Bind-n-Seq", "molecule type": "RNA", "matrix": "in vitro", "tested at": "1 µM", "setting": "whole 134-nt RNA, ends assumed", "with": "150 mM KCl", "relative to": "input library", "reading": "higher = stronger binding", "chain of UniProt Q13283 (whole entry, looked up)": "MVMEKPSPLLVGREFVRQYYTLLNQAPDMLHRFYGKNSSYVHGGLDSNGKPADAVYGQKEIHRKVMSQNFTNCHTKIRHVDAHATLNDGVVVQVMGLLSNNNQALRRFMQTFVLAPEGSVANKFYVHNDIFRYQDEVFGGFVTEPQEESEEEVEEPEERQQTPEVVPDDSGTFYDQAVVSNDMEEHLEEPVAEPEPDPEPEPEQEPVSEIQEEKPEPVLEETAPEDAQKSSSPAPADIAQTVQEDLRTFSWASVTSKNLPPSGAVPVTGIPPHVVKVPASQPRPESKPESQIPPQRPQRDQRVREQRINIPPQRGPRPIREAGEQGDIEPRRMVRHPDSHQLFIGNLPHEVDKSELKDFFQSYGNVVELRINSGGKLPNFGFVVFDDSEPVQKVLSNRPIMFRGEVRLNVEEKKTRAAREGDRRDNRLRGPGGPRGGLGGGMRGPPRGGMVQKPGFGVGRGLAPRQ"}
{"Oligonucleotide": "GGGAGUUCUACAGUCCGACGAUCCUCAAGUCCUGUGCUACACAUCGUAUGUACCGAAUCGGAAAGGUUUGGAAAGGAAAGUAUUAUGUUACGCCGUUCGGAUCUGCACUUCCAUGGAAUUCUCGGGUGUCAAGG", "log2 enrichment": -1.29}
{"Oligonucleotide": "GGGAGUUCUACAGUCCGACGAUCACCAUGCAGGUGGGCAUCUUUGGGAAGUGGGGCAAGGGGGGGAUAGGGAGGGGGGUAACACUUUGGGAACAGUUGGUCCCAGGUCGUUUCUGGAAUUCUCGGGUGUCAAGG", "log2 enrichment": 2.27}
{"Oligonucleotide": "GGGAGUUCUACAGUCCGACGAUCUGGGAGGUGGAUUUUGUUUAUUUUUUUAGCUCAUUUCCAGGGGUGGGAACUUUUUUUUAAUAUGUGUCAUGAAUAAAGUUGUUUUUGAAAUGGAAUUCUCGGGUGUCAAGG", "log2 enrichment": 3.57}
{"Oligonucleotide": "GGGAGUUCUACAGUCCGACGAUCCCUGUGCUACACAUCGUAUGUACCGAAUCAAACCCCCCCAAACCCCCCCAAACCCCCAAAAAAGUAUUAUGUUACGCCGUUCGGAUCUGCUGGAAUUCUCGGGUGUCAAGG", "log2 enrichment": -0.918}
{"Oligonucleotide": "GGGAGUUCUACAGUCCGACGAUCUAACUUUAGAGGAGGAUCUGAUGGAUAUGGCAGUGGACGUGGAUUUGGGGAUGGCUAUAAUGGGUACGGAGGAGGACCUGGAGGUGGCAAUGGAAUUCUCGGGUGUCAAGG", "log2 enrichment": -0.677}
{"Oligonucleotide": "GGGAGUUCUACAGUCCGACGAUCGCAGGAAGUAAAAACAAAUGGAAAUGCUUCGGAUAGUGGCGGGGGUGGGGGUUGCUAAGGAAAGGGUGGGAUGGGAGUGGGUAAAGAGUUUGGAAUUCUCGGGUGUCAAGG", "log2 enrichment": 1.27}
{"Oligonucleotide": "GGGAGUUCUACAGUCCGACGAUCUCCUGUGCUACACAUCGUAUGUACCGAAUCAAAUUUUUUUAAACCCCCAAACCCCCAAAAAAGUAUUAUGUUACGCCGUUCGGAUCUGCAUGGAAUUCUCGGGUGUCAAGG", "log2 enrichment": -0.828}
{"Oligonucleotide": "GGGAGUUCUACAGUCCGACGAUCAAGUCCUGUGCUACACAUCGUAUGUACCGAAUCGGUUUUGGGUUUUGGGUUUUGGGGAAAGUAUUAUGUUACGCCGUUCGGAUCUGCACUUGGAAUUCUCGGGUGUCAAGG", "log2 enrichment": -0.847}
{"Oligonucleotide": "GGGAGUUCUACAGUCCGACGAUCGCAGGAAGUCAAAACAAAUGGAAAUGCUUCGGAUAGUGGCAGGGGUGGGGGUUGCUAAGGAAAGGGUGGGAUGGGAGUGGGUAAAGAGUUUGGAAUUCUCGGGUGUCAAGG", "log2 enrichment": 1.72}
{"data": "Series 2", "target": "RNA binding protein fox-1 homolog 2, RRM domain, GST-SBP tag (RBFOX2, Homo sapiens, UniProt O43251-10, residues 100-194)", "technique": "RNA Bind-n-Seq", "molecule type": "RNA", "matrix": "in vitro", "tested at": "365 nM", "setting": "natural RNA segment, single round, ends assumed", "relative to": "no-protein control", "reading": "higher = stronger binding", "Residues (chain)": "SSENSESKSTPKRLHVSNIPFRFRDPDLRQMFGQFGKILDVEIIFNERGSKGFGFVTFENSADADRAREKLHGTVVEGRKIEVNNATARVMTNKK"}
{"Oligonucleotide": "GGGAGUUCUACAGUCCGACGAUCCUUACUUGGCCAUGGGGUUGCUUGUUUAAAUAUUAAACUUACCCUUGUGACCUCUGUCCACAGUCAUUUGAAGGAAGGAUUUCCUUUGGUUUUAGCUAUGCUUAUGAAAUUGGAAUUCUCGGGUGCCAA", "RBNS enrichment (R)": 0.615}
{"Oligonucleotide": "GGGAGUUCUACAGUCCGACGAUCUCAUCCCUAGUAUCUGCUCUGCAAACCAUCUAGACAGAAGCAGUAGGCCUGGCUUUCUCAACUGCCUGAGGCUGUUGCGCAGCAUUGCUGCCUCAUGUGACUGCCGUGCCUGGAAUUCUCGGGUGCCAA", "RBNS enrichment (R)": 0.259}
{"Oligonucleotide": "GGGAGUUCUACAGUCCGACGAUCUAGUCUUACUGAGCUUAUGCUUCACUCCUUUAUGUUUAACCAUGUGUCUACAAGAAUAAGUUUGUUUUGGAAAGUUGAGCUAUAGCUACAGCUCUAGCUAUCCAGCAGACUGGAAUUCUCGGGUGCCAA", "RBNS enrichment (R)": 0.382}
{"Oligonucleotide": "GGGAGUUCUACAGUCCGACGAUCUUAAAAAGGCAGAACUAGGGAGGUGACUUUAGGCCUCCUGCUGUGGCCUCUGAAGAAGGUGACUCUUCAGGUAAGACUGAUGGAGGCUACACCGACAAACCGCAGACACGUGGAAUUCUCGGGUGCCAA", "RBNS enrichment (R)": 0.245}
{"Oligonucleotide": "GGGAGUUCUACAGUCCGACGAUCUUUAAAGUGUUUUCCUUAAUGUUCUCUGAAAACAAGUUUCUUUUGUAGUUUUAACCAAAAAAGUGCCCUUUUUGUCACUGGAUUCUCCUAGCAUUCAUGAUUUUUUUUUCUGGAAUUCUCGGGUGCCAA", "RBNS enrichment (R)": 1.13}
{"Oligonucleotide": "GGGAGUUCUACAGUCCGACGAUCUUGAUCUUAUUUACUUUAUGCUACCUCUCCCACACUGGUUUUAUUUGUAAUUUGCAUUUAUAUACUCAUUUUAAAUGACUUUUCAGUGUUUUUCAUAGUUUAUAAUCUGAUGGAAUUCUCGGGUGCCAA", "RBNS enrichment (R)": 0.87}
{"Oligonucleotide": "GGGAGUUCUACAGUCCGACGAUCCUUAAAAUAUCCCCCUACCUGGGUCCUCAGUGCUAUGUUUAAAGUGCUGCAGGGAUGGAGUGGCGUUUUCUUAUUGCUGUAUGUAUUGUACAUAGUGGAGUAGUUAGUUAUGGAAUUCUCGGGUGCCAA", "RBNS enrichment (R)": 1.29}
{"Oligonucleotide": "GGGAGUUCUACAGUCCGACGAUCCAGGCCUGACGUUAAGAAUGGUGAGUGCAUAGGCAGAAUGAGGCCUGAAUAAAGAUGGGCUCUGAAAGGGGACUUCUGAGCAGGCCUAACUGUAGUCCUGGAAGUCUGAAUGGAAUUCUCGGGUGCCAA", "RBNS enrichment (R)": 1.76}
{"data": "Series 3", "target": "Hepatocyte nuclear factor 3-alpha (Foxa1, Mus musculus, UniProt P35582, residues 1-468, full length assumed)", "technique": "EMSA with sequencing", "molecule type": "double-stranded DNA, one strand shown", "matrix": "in vitro", "tested at": "10 and 20 nM", "setting": "whole designed probe, mean of two concentrations, ends assumed", "relative to": "negative control set to 0", "reading": "higher = stronger binding", "Residues (chain)": "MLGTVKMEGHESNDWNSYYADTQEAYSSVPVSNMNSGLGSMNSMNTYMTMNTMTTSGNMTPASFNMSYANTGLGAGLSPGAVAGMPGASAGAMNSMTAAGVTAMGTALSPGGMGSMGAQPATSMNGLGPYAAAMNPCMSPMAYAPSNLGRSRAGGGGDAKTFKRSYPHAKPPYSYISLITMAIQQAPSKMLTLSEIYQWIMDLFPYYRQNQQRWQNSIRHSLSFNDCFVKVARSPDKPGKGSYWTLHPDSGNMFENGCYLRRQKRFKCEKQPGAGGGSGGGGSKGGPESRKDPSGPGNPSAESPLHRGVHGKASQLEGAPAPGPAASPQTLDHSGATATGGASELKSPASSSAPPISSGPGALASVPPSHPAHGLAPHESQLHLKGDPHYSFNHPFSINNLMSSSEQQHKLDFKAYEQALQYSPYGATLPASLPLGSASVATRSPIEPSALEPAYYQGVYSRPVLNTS"}
{"Oligonucleotide": "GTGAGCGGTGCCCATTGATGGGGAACTGTATCCATCTGGGCAGTATCTTCTCTGGGCCTGGCCTGTCATAGGTGCTTCAGGTTTCCCCATTTGAACCAGATACCAGTCGGGTTACCGGATGTTTGCTTAAGGCTTCCTGCTAATGAGTCATAATTCCTGTGCTGCTTCCAGCTAGGACTGATCGAATCAGTCTGGATTTTCCTTGGGGTGATCCGCAGGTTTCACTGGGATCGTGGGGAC", "normalised bound fraction": "0.297 ratio"}
{"Oligonucleotide": "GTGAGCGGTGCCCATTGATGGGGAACTCGGCCAGCCTGGCTTCTGCGCCCCGCCAGGAGGTCGCGGAGCGGAGCGCGGCCAGGAAGTGAGCTGAGAGTGACAGCTCCCCCCACGCGAGAATAAACAAACAATGACTCATTCTCCACACACTGGCTCTTCTTTCTTTCGGGAGGAGGGGAGAAAGGAGCGGGAGGGCGGGCGGGCAGGGGAGAGGCAGGCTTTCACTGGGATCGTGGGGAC", "normalised bound fraction": "0.349 ratio"}
{"Oligonucleotide": "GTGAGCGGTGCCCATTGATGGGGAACTGGCCTTCTGGCCCTATCTGCTCCGTGCCCAACCCAGCGCCCCGCACAGTCGGAGCTTTGTAATTTCGAGGTGACTGTCTGCCTACAAACTTTGTAATCTTCACTTGAAATGGCCGCAGGGTATTGTGACATGGCCATACCACTATTTGTTTGCTATTGAATTTGTACTTCCCTGCCTTACTTTTGCTATTGCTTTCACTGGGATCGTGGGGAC", "normalised bound fraction": "0.24 ratio"}
{"Oligonucleotide": "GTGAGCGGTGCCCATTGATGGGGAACAATAGAATAAAAAAAATAGATTACACCATTTTAACAAATAGAGTCTATCACATAGTGTGAATGTGTGCCTGAATGTATGCACTGAGTCATAATATAATCTTGCGTTTTCTGTGGGTTGTGGTCACTGCATGAAGGGAATTATCTGAGATCACTTGGCTATAGGGAAGTTAGACTTCATGGTTATTGTCTACTATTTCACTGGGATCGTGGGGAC", "normalised bound fraction": "0.0632 ratio"}
{"Oligonucleotide": "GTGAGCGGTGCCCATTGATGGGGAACTTCCTTCTGCAGCTTTCCTCCCCAAACTCCACTGGTGCTCATGTTGACTCATCTGTCATTTTCACTTCCTTTCTGGCAGAGTAGCTGAGCTGAGCAAACAACAGAGCAGGACGACAATAGTCTGGCCTCTGCATGAAGCCACCAGTTCACAGGAAATACAGGGGGCAGAGGAACATGTTAAGTGGCACCTCAGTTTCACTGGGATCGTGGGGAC", "normalised bound fraction": "0.327 ratio"}
{"data": "Series 4", "target": "Interferon regulatory factor 5, full length, phosphomimetic (IRF5, Homo sapiens, UniProt Q13568-2, residues 1-514, S451D/S453D/S456D/S462D)", "technique": "protein-binding microarray", "molecule type": "double-stranded DNA, one strand shown", "matrix": "in vitro", "tested at": "940 nM top", "setting": "60-bp whole probe", "with": "salmon DNA 0.4 mg/ml", "relative to": "random background probes", "reading": "higher = stronger binding", "all sequences stand within": "GCCTAGCAC … GTCTTGATTCGCTTGACGCTGCTG"}
{"Oligonucleotide": "TCATTTACCCATCTCCAACTGTGCTAG", "fitted relative affinity": "1.12 z-score"}
{"Oligonucleotide": "GACGGTCACCTTCTCCTGACGTGCTAG", "fitted relative affinity": "0.137 z-score"}
{"Oligonucleotide": "GACGATCTCAGTAGCGAGACGTGCTAG", "fitted relative affinity": "0.109 z-score"}
{"Oligonucleotide": "GACGGACTGGATATCGGGACGTGCTAG", "fitted relative affinity": "-0.539 z-score"}
{"Oligonucleotide": "GACGGTTCCGCTTTCGGGACGTGCTAG", "fitted relative affinity": "1.83 z-score"}
{"Oligonucleotide": "GACGAACTGGGGTTTCGAGTCGTGCTA", "fitted relative affinity": "3.51 z-score"}
{"Oligonucleotide": "GACGGTTTCGGACTGGCGACGTGCTAG", "fitted relative affinity": "6.24 z-score"}
{"Oligonucleotide": "TAACATATTCTCTTCTTGCAGTGCTAG", "fitted relative affinity": "1.3 z-score"}
{"Oligonucleotide": "TTAGGTATCGGATTTCGGTTAGTGCTA", "fitted relative affinity": "4.44 z-score"}
{"Oligonucleotide": "GACGGGCTGGGGACTGGGGACGTGCTA", "fitted relative affinity": "-0.0463 z-score"}
{"Oligonucleotide": "GACGATTTCGGGACTGGAGACGTGCTA", "fitted relative affinity": "0.0425 z-score"}
{"Oligonucleotide": "TTATGTTTCGGGACTGGGTTAGTGCTA", "fitted relative affinity": "3.41 z-score"}
{"Oligonucleotide": "TTAGATTTCGGTTTCGGTTAGTGCTAG", "fitted relative affinity": "10.1 z-score"}
{"Oligonucleotide": "GACGGGCTGGGTATCGGGACGTGCTAG", "fitted relative affinity": "0.605 z-score"}
{"Oligonucleotide": "GACGGTCTCAGTTTCGGGACGTGCTAG", "fitted relative affinity": "5.04 z-score"}
{"Oligonucleotide": "TTAGGTCTGGGGTTTCGGTTAGTGCTA", "fitted relative affinity": "5.71 z-score"}
{"Oligonucleotide": "AACCGCACAGAACTAAAACAGTGCTAG", "fitted relative affinity": "-0.089 z-score"}
{"note": "Some of these lines once more (series 4):"}
{"Oligonucleotide": "GACGGTTCCGCTTTCGGGACGTGCTAG", "fitted relative affinity": "1.83 z-score"}
{"Oligonucleotide": "GACGAACTGGGGTTTCGAGTCGTGCTA", "fitted relative affinity": "3.51 z-score"}
